Experimental data pooled from the literature.
Every numbered part comes from another study and shows a few of its results, in no order. Positions count from the first letter of the parent shown.

Sample 1
Target: RNA binding protein fox-1 homolog 2, RRM domain, GST-SBP tag (RBFOX2, Homo sapiens, UniProt O43251-10, residues 100-194)
Technique: RNA Bind-n-Seq
Form: RNA
Matrix: in vitro
Concentration: 365 nM
Setting: natural RNA segment, single round, ends assumed
Reference: no-protein control
Direction: higher = stronger binding
Shared flanks, not repeated: GGGAGUUCUACAGUCCGACGAUC … UGGAAUUCUCGGGUGCCAA
Target sequence (chain): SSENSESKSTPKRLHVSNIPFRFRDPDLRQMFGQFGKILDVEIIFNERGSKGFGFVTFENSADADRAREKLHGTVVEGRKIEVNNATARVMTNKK
For `GGAGACCUAGGUUUCAGCCCCUCUCUACUGUCAGCGAGCUGUGCAACGUGGGCAAGUCAUUGUCCUCUGAGCUGCAGUUUCCUCAUCUGUCACAUCGCUACAGACAAGAC`, “RBNS enrichment (R)” read 0.2.
For `GCCGGGAGACCAGUGUUAGAGGAUCCAAGCGACCUAAACAGCUGCUUUAUGAAAUAUCCUUACUUUAUCUGGGCUUAAUAAGUCACUGACAUCAGCACUGCCAACUCGGC`, “RBNS enrichment (R)” read 0.293.
For `GAAGAGGCUCCUCUUCUCAGUGUUUCCCAAAGGGGCGGCUCUUGUGGUUUCAAAAUCUCUGGCACCAUCUUGACCUCUUGGCUCUCUCUGCACUUUGCCCCCUGUCUCAA`, “RBNS enrichment (R)” read 0.542.
For `UAGUUCUGUACAUGUGGCUGGAUUUAAAUAUCCUGUUUUUGAUACUAAUUUUGAAAGUCAUGUAACUUCUUUUGAUAUCUGGGCAAAAGUAACCAUAUGCUAUAAGCAUU`, “RBNS enrichment (R)” read 0.269.
`CGAGGGCAAAGAUGCUAAAUCUUGCUUUGCAUUCAGUAAAGUGUCAAGUGAUUAAGUGUGUAUUUGUACCCUAGAUGAUAUGAACCAGCAGUCUUGUUUUGGCAUCAUCC` — result for “RBNS enrichment (R)”: 1.41.
Under “RBNS enrichment (R)”, `UUAGUUGAUCCGGUUUCUCUGUUCUGACAAGGUGGAAAACUGGUAAGCAUCUCAGAUCUGCAGUAUUGUGGUGGUGCUCCACUGAGCAGGAGUCCACUCAGAAGCAUGAG` is recorded as 0.636.
`ACCUUCAGCUCAUCGGAUGUACAGUUUACAGUUGAGUAACAGUGAACGGAAGGAUUUUCUUUCUUGGUCGGAUGUGCAGAACUUGGGAUGUGUAUAUAUAAAUAUAUAAU` — result for “RBNS enrichment (R)”: 0.965.
`AGAUAGCAUCAAUAAUAUAGUCUCAGUCUUGUUUAUAAAGAUUCUAAGUUGUCUAGUAAAUAAGUCUCCCUGAAUCUUAAAUAAUUUUGGAGAAUUAGAAUUCUCCAUCC` — result for “RBNS enrichment (R)”: 0.59.

Sample 2
Target: Histone acetyltransferase KAT6A, winged helix 1, GST fusion (KAT6A, Homo sapiens, UniProt Q92794, residues 1-85)
Technique: protein binding microarray
Form: double-stranded DNA, one strand shown
Matrix: in vitro
Concentration: not given
Setting: 8-mer, flanks averaged, mean of 2 arrays, mostly near background
Reference: not given
Direction: higher = stronger binding
Residues (chain): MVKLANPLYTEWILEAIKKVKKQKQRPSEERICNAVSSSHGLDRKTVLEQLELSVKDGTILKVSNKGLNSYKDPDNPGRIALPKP
For `GCGCCTGA`, the E-score was 0.104.
For `GCCTTAGA`, the E-score was 0.0164.
The E-score of `GCAAGTAA` is reported as -0.234.
`AAGTCTCT` has an E-score of -0.314.
For `CCAATCCA`, the E-score was -0.229.
With `CTGTGAGC` the E-score was -0.0659.
The E-score of `AACTTTAT` is reported as -0.16.
For `GCTTTTCC`, the E-score was 0.088.
The E-score of `ATAGATAC` is reported as -0.169.
`GTGGCAAA` has an E-score of -0.182.
`AAGCCGTC` has an E-score of 0.416.
`TGGAGACA` gave an E-score of -0.162.
`CCGAATGC` gave an E-score of 0.249.
For `AACCAAAT`, the E-score was -0.171.
With `GCACTCAC` the E-score was -0.0433.
For `AGCTCACT`, the E-score was -0.101.

Sample 3
Target: CCNA2, cyclin fold, Cln2 fusion (human)
Technique: yeast growth competition, sequencing
Matrix: yeast
Setting: strong parent motif
Reference: not given
Direction: higher = stronger binding
Starting sequence: RBL1 docking peptide (human); GSAKRRLFGEDPP; partner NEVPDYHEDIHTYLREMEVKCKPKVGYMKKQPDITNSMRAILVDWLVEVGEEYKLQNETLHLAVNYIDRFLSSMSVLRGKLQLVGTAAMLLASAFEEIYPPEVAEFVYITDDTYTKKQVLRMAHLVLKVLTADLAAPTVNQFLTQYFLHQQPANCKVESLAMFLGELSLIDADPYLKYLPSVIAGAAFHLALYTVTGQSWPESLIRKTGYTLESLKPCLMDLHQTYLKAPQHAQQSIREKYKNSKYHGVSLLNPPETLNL
For `GSARRRLFGEDPP [K4R]`, “normalised enrichment score” read 6.65.
Under “normalised enrichment score”, `GSQKRRLFGEDPP [A3Q]` is recorded as -0.101.
Under “normalised enrichment score”, `GSAKRRLFGHDPP [E10H]` is recorded as 5.66.
`GSAKRRLFGFDPP [E10F]` — result for “normalised enrichment score”: 5.27.
`GSAKARLFGEDPP [R5A]` — result for “normalised enrichment score”: 1.17.
Under “normalised enrichment score”, `GSAKRFLFGEDPP [R6F]` is recorded as 1.11.
`GFAKRRLFGEDPP [S2F]` — result for “normalised enrichment score”: 4.36.
For `GSAKRRLFGVDPP [E10V]`, “normalised enrichment score” read 5.07.
For `GSAKRRDFGEDPP [L7D]`, “normalised enrichment score” read 0.054.
`GLAKRRLFGEDPP [S2L]`: “normalised enrichment score” 4.87.
`GSASRRLFGEDPP [K4S]`: “normalised enrichment score” 2.95.
Under “normalised enrichment score”, `GSAKRRLFDEDPP [G9D]` is recorded as 5.99.

Further values, each from its own experiment
For `PhoQ, residues 284 288 289 292 302 303 ASTSDA`, the fold induction was 15.2 (PhoP, residues 12 14 15 18 19 LFHKL (Escherichia coli, UniProt P23836); Sort-seq, refers to: YFP reporter; E. coli; PhoQ-PhoP variant library, added: 10 µM Mg2+; reference: high Mg2+ state, higher = stronger signaling).
